# Measured values of several laboratories.
# Every numbered part comes from another study and shows a few of its results, in no order. Several values in a cell are separate wells, animals, samples, runs or records.
# Sequence of UniProt Q99759 (whole entry, looked up): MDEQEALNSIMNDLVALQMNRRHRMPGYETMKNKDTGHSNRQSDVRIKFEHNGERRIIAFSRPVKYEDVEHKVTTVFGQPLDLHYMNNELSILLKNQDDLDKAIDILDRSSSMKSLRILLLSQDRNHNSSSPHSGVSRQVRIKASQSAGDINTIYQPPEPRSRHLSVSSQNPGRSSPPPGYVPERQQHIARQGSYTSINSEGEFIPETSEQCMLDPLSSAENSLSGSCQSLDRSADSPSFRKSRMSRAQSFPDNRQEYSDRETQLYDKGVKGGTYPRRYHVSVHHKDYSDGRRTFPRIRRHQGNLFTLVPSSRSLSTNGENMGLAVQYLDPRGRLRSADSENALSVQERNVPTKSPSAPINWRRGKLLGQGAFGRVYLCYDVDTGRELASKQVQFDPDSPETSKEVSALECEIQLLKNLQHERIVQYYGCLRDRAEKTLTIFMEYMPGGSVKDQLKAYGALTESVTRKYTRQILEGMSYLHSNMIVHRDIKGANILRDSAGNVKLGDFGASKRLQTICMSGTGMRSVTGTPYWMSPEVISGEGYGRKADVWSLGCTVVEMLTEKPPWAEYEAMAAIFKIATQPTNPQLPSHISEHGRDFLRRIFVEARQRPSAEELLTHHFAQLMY
# Sequence of UniProt Q7L7X3 (whole entry, looked up): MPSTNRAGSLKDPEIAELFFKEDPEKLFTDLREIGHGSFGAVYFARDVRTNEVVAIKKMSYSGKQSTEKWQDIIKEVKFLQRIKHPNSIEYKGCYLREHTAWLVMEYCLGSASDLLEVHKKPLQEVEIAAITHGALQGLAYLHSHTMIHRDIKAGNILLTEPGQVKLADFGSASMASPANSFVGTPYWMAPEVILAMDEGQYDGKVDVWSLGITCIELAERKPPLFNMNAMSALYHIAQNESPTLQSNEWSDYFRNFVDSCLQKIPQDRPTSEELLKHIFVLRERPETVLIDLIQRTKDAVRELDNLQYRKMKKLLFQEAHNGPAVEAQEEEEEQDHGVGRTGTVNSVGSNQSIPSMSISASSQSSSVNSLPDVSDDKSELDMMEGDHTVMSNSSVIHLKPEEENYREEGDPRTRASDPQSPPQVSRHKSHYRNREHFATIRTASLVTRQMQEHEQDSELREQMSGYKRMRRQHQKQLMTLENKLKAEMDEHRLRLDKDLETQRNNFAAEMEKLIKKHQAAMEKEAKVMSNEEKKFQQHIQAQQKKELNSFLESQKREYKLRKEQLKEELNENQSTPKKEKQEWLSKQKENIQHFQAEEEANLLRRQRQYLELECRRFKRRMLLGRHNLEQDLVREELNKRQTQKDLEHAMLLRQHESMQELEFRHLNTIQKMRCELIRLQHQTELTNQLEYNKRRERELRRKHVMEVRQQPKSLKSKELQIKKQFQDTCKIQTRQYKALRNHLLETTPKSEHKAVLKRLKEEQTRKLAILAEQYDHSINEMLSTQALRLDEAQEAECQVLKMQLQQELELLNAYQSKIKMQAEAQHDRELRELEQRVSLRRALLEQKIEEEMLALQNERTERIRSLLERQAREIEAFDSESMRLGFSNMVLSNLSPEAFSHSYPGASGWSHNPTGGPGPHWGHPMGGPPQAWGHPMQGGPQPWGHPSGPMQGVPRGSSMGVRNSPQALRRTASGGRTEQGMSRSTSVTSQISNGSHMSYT
# Sequence of UniProt P80192 (whole entry, looked up): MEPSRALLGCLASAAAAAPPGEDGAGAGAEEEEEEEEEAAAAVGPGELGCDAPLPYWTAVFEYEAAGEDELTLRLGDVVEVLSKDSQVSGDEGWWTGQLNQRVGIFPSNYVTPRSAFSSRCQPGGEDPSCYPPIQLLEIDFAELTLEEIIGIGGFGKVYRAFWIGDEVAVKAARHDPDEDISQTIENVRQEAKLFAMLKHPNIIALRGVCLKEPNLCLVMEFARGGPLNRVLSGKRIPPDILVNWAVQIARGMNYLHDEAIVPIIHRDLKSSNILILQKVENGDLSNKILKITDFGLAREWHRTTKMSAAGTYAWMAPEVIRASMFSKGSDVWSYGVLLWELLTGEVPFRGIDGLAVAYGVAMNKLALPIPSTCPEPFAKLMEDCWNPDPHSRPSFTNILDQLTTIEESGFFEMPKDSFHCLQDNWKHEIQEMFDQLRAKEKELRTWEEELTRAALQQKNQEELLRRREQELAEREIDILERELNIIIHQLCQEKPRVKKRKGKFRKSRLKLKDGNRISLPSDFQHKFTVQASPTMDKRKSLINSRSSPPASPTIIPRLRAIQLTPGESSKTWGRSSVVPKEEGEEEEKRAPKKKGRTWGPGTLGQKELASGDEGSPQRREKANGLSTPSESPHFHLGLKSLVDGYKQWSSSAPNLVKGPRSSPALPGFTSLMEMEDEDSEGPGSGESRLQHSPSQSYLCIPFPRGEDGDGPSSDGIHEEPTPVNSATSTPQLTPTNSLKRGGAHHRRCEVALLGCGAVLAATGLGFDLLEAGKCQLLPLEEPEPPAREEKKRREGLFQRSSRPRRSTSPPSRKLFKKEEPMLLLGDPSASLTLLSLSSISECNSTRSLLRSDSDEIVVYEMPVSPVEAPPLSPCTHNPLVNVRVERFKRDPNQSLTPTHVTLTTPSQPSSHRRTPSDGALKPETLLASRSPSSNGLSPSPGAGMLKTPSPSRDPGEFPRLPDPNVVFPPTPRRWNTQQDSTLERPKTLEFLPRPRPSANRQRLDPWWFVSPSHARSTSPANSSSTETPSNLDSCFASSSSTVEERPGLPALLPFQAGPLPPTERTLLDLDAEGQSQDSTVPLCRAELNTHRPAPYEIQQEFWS
# Sequence of UniProt P07949 (whole entry, looked up): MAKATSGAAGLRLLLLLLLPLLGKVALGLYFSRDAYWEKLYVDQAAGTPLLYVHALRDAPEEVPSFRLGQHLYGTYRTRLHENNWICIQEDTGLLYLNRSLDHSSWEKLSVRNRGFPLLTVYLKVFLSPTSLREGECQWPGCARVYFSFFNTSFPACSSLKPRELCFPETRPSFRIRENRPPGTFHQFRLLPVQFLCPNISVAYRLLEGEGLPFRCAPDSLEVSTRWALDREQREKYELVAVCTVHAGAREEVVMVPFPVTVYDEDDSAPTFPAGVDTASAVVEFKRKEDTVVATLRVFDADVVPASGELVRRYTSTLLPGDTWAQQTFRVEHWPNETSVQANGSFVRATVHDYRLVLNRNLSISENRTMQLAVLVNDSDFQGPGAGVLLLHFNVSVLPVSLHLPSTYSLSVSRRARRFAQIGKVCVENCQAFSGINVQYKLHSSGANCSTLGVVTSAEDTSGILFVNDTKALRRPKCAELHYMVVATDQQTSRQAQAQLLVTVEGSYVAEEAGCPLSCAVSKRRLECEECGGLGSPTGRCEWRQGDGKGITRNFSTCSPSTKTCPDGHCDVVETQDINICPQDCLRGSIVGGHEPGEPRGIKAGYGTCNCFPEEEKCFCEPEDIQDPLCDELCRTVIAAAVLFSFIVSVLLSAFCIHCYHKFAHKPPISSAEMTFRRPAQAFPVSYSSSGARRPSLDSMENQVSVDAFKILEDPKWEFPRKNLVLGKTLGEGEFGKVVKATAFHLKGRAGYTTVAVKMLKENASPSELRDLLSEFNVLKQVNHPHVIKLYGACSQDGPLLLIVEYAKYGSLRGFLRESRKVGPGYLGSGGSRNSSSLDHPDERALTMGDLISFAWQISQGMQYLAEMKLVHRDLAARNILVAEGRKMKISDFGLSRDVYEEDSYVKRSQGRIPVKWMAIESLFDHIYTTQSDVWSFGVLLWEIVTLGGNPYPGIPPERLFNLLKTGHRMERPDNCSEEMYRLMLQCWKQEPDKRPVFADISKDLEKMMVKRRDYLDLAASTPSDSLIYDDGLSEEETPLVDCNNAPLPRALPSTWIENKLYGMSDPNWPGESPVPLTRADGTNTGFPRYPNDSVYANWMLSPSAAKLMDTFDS
# Sequence of UniProt Q13153 (whole entry, looked up): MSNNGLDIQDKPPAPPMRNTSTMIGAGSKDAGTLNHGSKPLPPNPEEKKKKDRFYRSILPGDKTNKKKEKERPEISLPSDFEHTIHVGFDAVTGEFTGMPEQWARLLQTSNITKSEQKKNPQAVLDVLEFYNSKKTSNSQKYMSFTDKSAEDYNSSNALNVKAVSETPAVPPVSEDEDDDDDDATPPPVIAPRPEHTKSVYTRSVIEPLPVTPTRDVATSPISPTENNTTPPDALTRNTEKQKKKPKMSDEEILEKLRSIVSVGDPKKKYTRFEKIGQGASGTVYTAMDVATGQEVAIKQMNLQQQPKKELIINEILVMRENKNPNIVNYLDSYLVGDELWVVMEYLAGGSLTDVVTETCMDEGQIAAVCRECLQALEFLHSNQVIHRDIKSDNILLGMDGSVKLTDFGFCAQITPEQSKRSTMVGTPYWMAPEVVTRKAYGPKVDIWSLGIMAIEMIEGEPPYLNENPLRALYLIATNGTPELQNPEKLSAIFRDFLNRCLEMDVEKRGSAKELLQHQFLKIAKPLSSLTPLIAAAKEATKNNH

# Block 1
# SMILES: Cn1cc(-c2cccc(CN3CCC4(CC3)COc3c4ccc4c3CN([C@H]3CCC(=O)NC3=O)C4=O)c2)cn1
host,medium,route,dose,setting,AUC(0-t)
cynomolgus monkey,,oral,3 mg/kg,,1120 ng·h/mL and 1150 ng·h/mL and 1600 ng·h/mL
rat,,intravenous,1 mg/kg,approximate dose,947 ng·h/mL and 721 ng·h/mL and 745 ng·h/mL
cynomolgus monkey,,intravenous,1 mg/kg,,1040 ng·h/mL and 787 ng·h/mL and 754 ng·h/mL
rat,plasma,intravenous,1.02 mg/kg,,804 ng·h/mL

# Block 2
# SMILES: CC[C@@]1(c2cccc(-c3c(F)cncc3OC)c2)C2=C(Nc3n[nH]cc31)[C@H](F)C(C)(C)CC2=O (single isomer, unassigned)
# Tested at: 1 µM
target,read-out,technique,baseline,remaining binding
"TAOK1 (Homo sapiens, UniProt Q7L7X3)",kinase binding,KINOMEscan,DMSO control,61%
"EGFR (Homo sapiens, UniProt P00533, G719C)",binding,competition with immobilised ligand,,100%
"MAP3K3 (Homo sapiens, UniProt Q99759)",kinase binding,KINOMEscan,DMSO control,73%
"PAK1 (Homo sapiens, UniProt Q13153)",kinase binding,KINOMEscan,DMSO control,95%
"INSRR (Homo sapiens, UniProt P14616)",binding,competition with immobilised ligand,,90%
"Tyrosine-protein kinase ABL1, phosphorylated (ABL1, Homo sapiens, UniProt P00519, Q252H)",kinase binding,KINOMEscan,DMSO control,96%
"MAP3K9 (Homo sapiens, UniProt P80192)",kinase binding,KINOMEscan,DMSO control,93%
"RET (Homo sapiens, UniProt P07949)",binding,competition with immobilised ligand,,100%

# Block 3
# Cell line: L444P/L444P Gaucher fibroblasts
# Technique: 4-MUG hydrolysis in lysate
# Tested at: 10 µM
# Time: 72 h
# Baseline: vehicle
Structure (SMILES),enzyme activity
CCN(CC)c1nc(NCCN2CCOCC2)nc(Nc2ccc(I)cc2)n1,70%
Fc1ccc(Nc2nc(NCCN3CCOCC3)nc(N3CCOCC3)n2)cc1,106%
Ic1ccc(Nc2nc(NCCN3CCOCC3)nc(N3CCCC3)n2)cc1,96%
COc1ccc(Nc2nc(NCCN3CCOCC3)nc(N3CCOCC3)n2)cc1,107%
Ic1ccc(Nc2nc(NCCN3CCOCC3)nc(N3CCCCC3)n2)cc1,91%
CCOc1ccc2nc(Sc3nc(Nc4ccc(I)cc4)nc(N4CCOCC4)n3)sc2c1,202% and 171% and 308% and 287% and 163% and 267%
Ic1cccc(Nc2nc(NCCN3CCOCC3)nc(N3CCOCC3)n2)c1,131%
Ic1ccc(Nc2nc(NCCc3c[nH]c4ccccc34)nc(NCCN3CCOCC3)n2)cc1,99%

# Further values, each from its own experiment
# HRAS: GTPase HRas (HRAS, Homo sapiens, UniProt P01112)
SMILES,target,test,test system,setting,quantity,value
C#Cc1cccc2cc(O)cc(-c3ncc4c(N5CC6CCC(C5)N6)nc(OCC56CCCN5CCC6)nc4c3F)c12,HRAS,"binding, competitor, NanoBRET",HEK293,1.11 µM,normalized BRET,68.3% and 96% and 92.2% and 81%
CN1CCC[C@H]1COc1nc2c(c(N3CCN(C(=O)C4CC4)[C@@H](CC#N)C3)n1)CCN(c1cccc3cccc(Cl)c13)C2,"GTPase KRas (KRAS, Homo sapiens, UniProt P01116, Q61L)","binding, competitor, NanoBRET",HEK293,137 nM,normalized BRET,86% and 94.1% and 92%
CN1CCC[C@H]1COc1nc2c(c(N3CCN(C(=O)C(F)(F)F)[C@@H](CC#N)C3)n1)CCN(c1cccc3cccc(Cl)c13)C2,"GTPase KRas (KRAS, Homo sapiens, UniProt P01116, G13D)","target engagement in cells, BRET",,,IC50,6 µM
C=CC(=O)N1CCN(c2nc(OC[C@@H]3CCCN3C)nc3c2CCN(c2cccc4cccc(C)c24)C3)C[C@@H]1CC#N,HRAS,"binding, competitor, NanoBRET",HEK293,9.77 nM,normalized BRET,114%
